{"data": "Assay results collected from several papers", "note": "Protocols differ between the studies behind these lines. ± gives the spread as reported."}
{"Structure (SMILES)": "CC(C)[C@H](NC(=O)[C@@H]1CCCN1C(=O)[C@H](CCCNC(=N)N)NC(=O)[C@H](CS)NC(=O)[C@H](Cc1c[nH]c2ccccc12)NC(=O)[C@H](CCCNC(=N)N)NC(=O)[C@@H](Cc1ccccc1)NC(=O)[C@H](Cc1c[nH]cn1)NC(=O)[C@H](CCC(=O)O)NC(=O)[C@H](CS)NC(=O)[C@H](CS)NC(=O)[C@@H]1CC(=O)N[C@@H](CCCNC(=N)N)C(=O)NCC(=O)N[C@@H](CC(=O)O)C(=O)N[C@H](Cc2ccc(O)cc2)C(=O)N1)C(N)=O [technetium-99m labelled]", "system": "C57 mice B16/F1 melanoma female, spleen", "conditions": "iv, 2 h, with: NDP-MSH 10 µg co-injected", "tissue uptake": "0.75 ± 0.21 %ID/g"}
{"Structure (SMILES)": "CN1C(=O)[C@@H](Cc2ccc(O)c(I)c2)NC(=O)CNC(=O)[C@H](Cc2ccc3ccccc3c2)NC(=O)[C@H](CCCNC(=N)N)NC(=O)[C@H]1CCCNC(=O)c1ccc(CNC(=O)CN2CCN(CC(=O)O)CCN(CC(=O)O)CCN(CC(=O)O)CC2)cc1 [lutetium-177 labelled]", "assay": "refers to: 177Lu radioactivity", "system": "female CB-17 SCID mice, Daudi xenograft, small intestine", "conditions": "intravenous, 0.16 nmol per mouse, 48 h", "tissue uptake": "0.11 ± 0.02 %ID/g"}
{"Structure (SMILES)": "O=C([O-])CN1CCN(CC(=O)[O-])CCN(CC(=O)[O-])CCN(CC(=O)[O-])CC1.[64Cu+2]", "system": "healthy athymic nude mice, blood", "conditions": "intravenous, 1 h", "tissue uptake": "0.21 %ID/g"}
{"Structure (SMILES)": "NC12CNCCNCC(NCc3ccc(CNC(=O)CCCC(=O)NCc4ccc(-c5nncnn5)cc4)cc3)(CNCCNC1)CNCCNC2.[64Cu+2]", "system": "athymic nude mice SW1222 xenograft, bone", "conditions": "12 h post injection, 24 h accumulation interval, with: huA33-TCO pretargeting", "tissue uptake": "0.23 ± 0.05 %ID/g"}
{"Structure (SMILES)": "CC(C)[C@H](NC(=O)[C@@H]1CCCN1C(=O)[C@H](CCCNC(=N)N)NC(=O)[C@H](CS)NC(=O)[C@H](Cc1c[nH]c2ccccc12)NC(=O)[C@H](CCCNC(=N)N)NC(=O)[C@@H](Cc1ccccc1)NC(=O)[C@H](Cc1c[nH]cn1)NC(=O)[C@H](CCC(=O)O)NC(=O)[C@H](CS)NC(=O)[C@H](CS)NC(=O)CNC(=O)[C@@H]1CC(=O)N[C@@H](CCCNC(=N)N)C(=O)NCC(=O)N[C@@H](CC(=O)O)C(=O)N[C@H](Cc2ccc(O)cc2)C(=O)N1)C(N)=O [technetium-99m labelled]", "system": "C57 mice B16/F1 melanoma female, intestines", "conditions": "iv, 0.037 MBq, 2 h", "tissue uptake": "2.41 ± 0.42 %ID"}
{"Structure (SMILES)": "CCCC[C@H](NC(=O)CN1CCC(NC(=O)CN2CCN(CC(=O)O)CCN(CC(=O)O)CCN(CC(=O)O)CC2)CC1)C(=O)N[C@H]1CC(=O)NCCCC[C@@H](C(N)=O)NC(=O)[C@H](Cc2c[nH]c3ccccc23)NC(=O)[C@H](CCCNC(=N)N)NC(=O)[C@@H](Cc2ccccc2)NC(=O)[C@H](Cc2c[nH]cn2)NC1=O [gallium-68 labelled]", "system": "C57BL/6J mice male B16-F10 tumour, spleen", "conditions": "2 h post injection, unblocked", "tissue uptake": "0.3 %ID/g"}
{"Structure (SMILES)": "O=C([O-])c1cccc(CN(CCN(Cc2cn(Cc3ccccc3)nn2)Cc2cccc(C(=O)[O-])n2)Cc2cn(Cc3ccccc3)nn2)n1.[64Cu+2]", "system": "healthy athymic nude mice, lung", "conditions": "intravenous, 15 min", "tissue uptake": "5.1 %ID/g"}
{"Structure (SMILES)": "O=C([O-])CN1CCN(CC(=O)[O-])CCN(CC(=O)NCCc2ccc3c(c2)C2C=CCC2C(c2cc4c(cc2Br)OCO4)N3)CCN(CC(=O)[O-])CC1.[111In+3] (centres unmarked)", "system": "mice with Hec50 tumour xenograft, urinary bladder", "conditions": "1 h", "tissue uptake": "1.5 ± 0.21 %ID/g"}
{"Structure (SMILES)": "O=C([O-])CN1CCN(CC(=O)[O-])CCN(CC(=O)NC[C@H]2CC[C@H](C(=O)N[C@H](Cc3cnc4ccccc4c3)C(=O)NCCCC[C@H](NC(=O)N[C@@H](CCC(=O)O)C(=O)O)C(=O)O)CC2)CCN(CC(=O)[O-])CC1.[64Cu+2]", "assay": "ex vivo gamma counting", "system": "22Rv1 tumour-bearing mice, kidney", "conditions": "intravenous, 0.74 MBq, 24 h", "tissue uptake": "9.86 ± 1.12 %ID/g"}
{"Structure (SMILES)": "CCCC[C@H](NC(=O)CNC(=O)CNC(=O)CN1CCN(CC(=O)O)CCN(CC(=O)O)CC1)C(=O)N[C@H]1CC(=O)NCCCC[C@@H](C(N)=O)NC(=O)[C@H](Cc2c[nH]c3ccccc23)NC(=O)[C@H](CCCNC(=N)N)NC(=O)[C@@H](Cc2ccccc2)NC(=O)[C@H](Cc2c[nH]cn2)NC1=O [gallium-67 labelled]", "system": "female C57 mice, B16/F1 melanoma, bone", "conditions": "intravenous, 0.037 MBq, 24 h", "tissue uptake": "0.71 ± 0.24 %ID/g"}
{"Structure (SMILES)": "CCCC[C@@H]1NC(=O)[C@@H](NC(=O)[C@H](CCC(=O)O)NC(=O)CNC(=O)CN2CCN(CC(=O)O)CCN(CC(=O)O)CCN(CC(=O)O)CC2)CCCCNC(=O)C[C@@H](C(N)=O)NC(=O)[C@H](C(C)C)NC(=O)[C@@H]2CCCN2C(=O)[C@H](CCCNC(=N)N)NC(=O)CNC(=O)[C@H](Cc2c[nH]c3ccccc23)NC(=O)[C@H](CCCNC(=N)N)NC(=O)[C@@H](Cc2ccccc2)NC(=O)[C@H](Cc2c[nH]cn2)NC(=O)[C@H](CCC(=O)O)NC1=O [gallium-67 labelled]", "system": "C57 mice, B16/F1 flank melanoma, skin", "conditions": "intravenous, 2 h, with: blocking peptide 10 µg", "tissue uptake": "0.04 %ID/g"}
{"Structure (SMILES)": "O=C([O-])CN1CCN(CC(=O)O)CCN(CC(=O)[O-])CCN(CC(=O)NCC2CCC(C(=O)NC(Cc3ccc4ccccc4c3)C(=O)NCCCCC(NC(=O)NC(CCC(=O)O)C(=O)O)C(=O)O)CC2)CC1.[212Pb+2] (centres unmarked)", "system": "athymic mice, C4-2 prostate cancer xenograft, tumour", "conditions": "intravenous, 2 h, 212Pb-labelled", "tissue uptake": "17.9 ± 2.9 %ID/g"}
{"Structure (SMILES)": "N=C(N)NCCC[C@H](NC(=O)CON=C[C@H](F)[C@@H](O)[C@H](O)[C@H](O)CO)C(=O)NCC(=O)N[C@@H](CC(=O)O)C(=O)O [fluorine-18 labelled]", "system": "nude mice U-87 MG tumour, liver", "conditions": "intravenous, 0.5 h", "tissue uptake": "0.44 ± 0.03 %ID/g"}
{"Structure (SMILES)": "CCCC[C@H](NC(=O)CNC(=O)CNC(=O)CN1CCN(CC(=O)O)CCN(CC(=O)O)CCN(CC(=O)O)CC1)C(=O)N[C@H]1CC(=O)NCCCC[C@@H](C(N)=O)NC(=O)[C@H](Cc2c[nH]c3ccccc23)NC(=O)[C@H](CCCNC(=N)N)NC(=O)[C@@H](Cc2ccccc2)NC(=O)[C@H](Cc2c[nH]cn2)NC1=O [gallium-67 labelled]", "system": "female C57 mice, B16/F1 melanoma, kidneys", "conditions": "intravenous, 0.037 MBq, 0.5 h", "tissue uptake": "16.4 ± 2.99 %ID/g"}
{"note": "Excerpt of the above:"}
{"Structure (SMILES)": "CCCC[C@@H]1NC(=O)[C@@H](NC(=O)[C@H](CCC(=O)O)NC(=O)CNC(=O)CN2CCN(CC(=O)O)CCN(CC(=O)O)CCN(CC(=O)O)CC2)CCCCNC(=O)C[C@@H](C(N)=O)NC(=O)[C@H](C(C)C)NC(=O)[C@@H]2CCCN2C(=O)[C@H](CCCNC(=N)N)NC(=O)CNC(=O)[C@H](Cc2c[nH]c3ccccc23)NC(=O)[C@H](CCCNC(=N)N)NC(=O)[C@@H](Cc2ccccc2)NC(=O)[C@H](Cc2c[nH]cn2)NC(=O)[C@H](CCC(=O)O)NC1=O [gallium-67 labelled]", "system": "C57 mice, B16/F1 flank melanoma, skin", "conditions": "intravenous, 2 h, with: blocking peptide 10 µg", "tissue uptake": "0.04 %ID/g"}
